Results gathered from unrelated publications.
Compare with care: the assays were run in different laboratories. Values joined by “and” are separate records of one study, mostly repeats; a detail may differ.
UCHL1: Ubiquitin carboxyl-terminal hydrolase isozyme L1 (UCHL1, Homo sapiens, UniProt P09936)
Chain of UniProt P09936 (whole entry, looked up): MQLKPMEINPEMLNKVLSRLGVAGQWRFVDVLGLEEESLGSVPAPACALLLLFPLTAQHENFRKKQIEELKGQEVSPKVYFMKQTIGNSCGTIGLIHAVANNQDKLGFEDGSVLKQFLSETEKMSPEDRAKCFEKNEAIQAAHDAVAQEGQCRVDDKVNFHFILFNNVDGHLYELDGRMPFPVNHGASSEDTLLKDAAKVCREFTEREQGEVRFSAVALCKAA

SMILES	target or system	assay	system	conditions	scale	quantity	value
C[n+]1cccc(C=NNc2nc(Cl)c(C#N)c(Cl)c2Cl)c1	UCHL1	covalent, intact protein LC-MS	–	12.5 µM	–	labelling	3.2%
COc1nnc2ccc(N3CCC(c4ccc(OCCN5CCN(C)C(=O)[C@H]5C)cc4)CC3)nn12	–	–	human patients	30 mg once daily, 1.5-fold above baseline	–	time above HEXIM1 threshold	5.1 h
CC(=O)c1cnc2ccc(-c3cc(Cl)c(O)c(Cl)c3)nc2c1N[C@H]1CC[C@H](CN(C)C)CC1	–	phosphoproteomics, refers to: AHA2	Arabidopsis thaliana seedlings	concentration not given, with: RALF1	–	RALF1-induced phosphorylation	decreased
Cn1cc(Nc2nc(N)nc(-c3cccc(-n4ccc5cc(C6CC6)cc(F)c5c4=O)c3CO)n2)cn1	–	CD63 upregulation, anti-IgE-induced	human, multiple ascending dose, whole blood basophils ex vivo	50 mg twice daily, day 14, 8 h	–	inhibition	79.4%
Cc1ccc(C(=O)OCc2ccc([C@@H](CN)C(=O)Nc3ccc4cnccc4c3)cc2)c(C)c1	–	tonometry	Macaca cyclopis, ocular normotensive	ocular, 0.02%, 4 h	–	IOP	17.4 mmHg
Nc1nc2cc(-c3ccc4ncc(C(=O)N5CCOCC5)n4c3)ccc2o1	–	RECIST v1.1	advanced solid tumour patients	dose not given, once-daily dosing	–	clinical benefit rate	40%
CCCCC1(CCCC)CN(c2ccccc2)c2cc(SC)c(OCC(=O)N[C@@H](C(=O)NCC(=O)O)c3ccccc3)cc2S(=O)(=O)C1	–	refers to: 7α-hydroxy-4-cholesten-3-one	human, plasma	20 mg once daily, day 1	–	plasma C4	13.9 ng/mL
O=C(COc1ccc(Cl)cc1)NC12CC(c3nnc([C@H]4C[C@@H](OC(F)(F)F)C4)o3)(C1)C2	–	–	healthy human, PBMC	oral, 45 mg single dose, day 2, 24 h post-dose, median, with: sodium arsenite ex vivo	relative to: baseline	CHAC1 mRNA change	-47%
Cc1n[nH]c2ccc(-c3cc(OC[C@@H](N)Cc4ccccc4)cnc3-c3ccoc3)cc12	–	kinase binding, competitor, MIB/MS competition, refers to: IRE1	Candida albicans cell lysate	10 µM	relative to: DMSO	log2 fold change	-0.0877
COc1cc2cc(-c3ccc(CC(=O)Nc4cc(C(C)(C)C(F)(F)F)no4)cn3)cnc2cc1OC	–	RECIST v1.1	human RET fusion-positive NSCLC	75 mg, phase I	–	best overall response CR	0%
C[C@@H](O)CCOC(=O)C[C@@H](C)O	–	–	human	oral drink, dose not given, 240 min post dose, median, all participants	–	plasma insulin	445 pg/mL
C[C@@H]1C[C@H]2O[C@@]3(O[C@@H]2C(C)(C)O)[C@H](O)[C@@]2(C)[C@@H]4CC[C@H]5C(C)(C)[C@@H](O[C@@H]6OC[C@@H](O)[C@H](O)[C@H]6O)CC[C@@]56C[C@@]46CC[C@]2(C)[C@@H]13	–	agonist, qPCR, refers to: Bsep	medaka larvae, water exposure	10 µM, 48 h	relative to: maximal induction by reference agonist	mRNA induction	108%
CC(C)n1c(C2CCNCC2)nc2c([N+](=O)[O-])c(Br)c(Br)cc21	–	–	patients with AML, bone marrow	all dose levels	–	maximum blast reduction	-100%
Cc1c(NC(=O)c2cccnc2)c(=O)n(-c2ccccc2)n1C	–	histology	Dmd C3333Y mice, triceps	dose not given	–	necrotic area	6.7% and 6.2% and 4.3% and 5.8% and 5.9%
NCC(=O)Nc1cncc(-c2nn3c(=O)cc(N4CCNCC4)nc3s2)c1	–	ADP-induced platelet aggregation, light transmission aggregometry	human stable CAD patients on aspirin, platelets ex vivo	0.075 mg/kg, 120 min post dose, with: 20 µM ADP	relative to: placebo difference	inhibition of platelet aggregation	28.1%
C[C@]12CC[C@@H]3c4ccc(O)cc4CC[C@H]3[C@@H]1CC[C@@H]2O	–	RT-qPCR, refers to: CO	Arabidopsis thaliana ING1:FLAG seedlings	dose not given, 4 h, unit not given	relative to: TUB2	mRNA level	0.0055
COc1ccc(-c2cncc(N[C@@H](C)c3cccc(NC(=O)c4cncc(C)c4)c3)n2)cc1OC	–	refers to: rno-miR-192-5p	rat SU5416/hypoxia model, lung	dose not given	relative to: SU5416/hypoxia vehicle	fold change	1.71
O=C(O)CNC(=O)Cc1ccccc1	–	–	ventricular cardiomyocytes, C57BL/6 mouse	dose not given, 0.508 s	–	sarcomere length	1.63 µm
N#Cc1ccc2c(-c3ccncc3)c(-c3ccc(F)cc3)nn2c1	–	kinase binding, competitor, MIB/MS competition, refers to: SCH9	Candida albicans cell lysate	100 nM	relative to: DMSO	log2 fold change	0.283
O=C1Nc2cc3[nH]nc(-c4ccncc4)c3cc2CN1Cc1ccccc1	–	RECIST v1.1	human, relapsed or refractory advanced solid tumours	intravenous, 4.8 mg/kg, pooled schedules	–	stable disease, best response	0%

SMILES	target or system	assay	system	conditions	scale	quantity	value
Cc1nn(-c2nc3c(F)cc(F)cc3s2)c(O)c1C(c1ccc(C(F)(F)F)cc1)c1c(C)nn(-c2nc3c(F)cc(F)cc3s2)c1O	–	–	mouse, cerulein-induced acute pancreatitis	25 mg/kg	–	pancreas to body weight ratio	8.54 mg/g and 10.9 mg/g and 11.9 mg/g and 13.5 mg/g and 12.2 mg/g
NC(=O)c1cnc2[nH]ccc2c1N[C@@H]1[C@@H]2CC3C[C@H]1C[C@@](O)(C3)C2	–	flow cytometry	Japanese healthy men, blood	oral, 100 mg twice daily, 72 h after day 7 dose	relative to: baseline	CD4+ naive T-cell change	-4.65%
CC#Cc1cncc(-c2ccc3c(c2)[C@@]2(N=C(C)C(N)=N2)[C@]2(CC[C@H](OC)CC2)C3)c1	–	refers to: Aβ42	Dunkin-Hartley guinea pigs, CSF	oral, dose not given, 8 h	–	maximum reduction	90%
N#Cc1ccn2c(-c3ccncc3)c(-c3ccc(F)cc3)nc2c1	–	kinase binding, competitor, MIB/MS competition, refers to: KIN3	Candida albicans cell lysate	100 nM	relative to: DMSO	log2 fold change	-0.243
COc1cc2nccc(Oc3ccc(NC(=O)NC4CC4)c(Cl)c3)c2cc1C(N)=O	–	refers to: Ang-2	human, serum	PK/PD model, bootstrap median	–	Hill coefficient	4.13
N#Cc1ccc2c(c1)[C@H]1CCCN(C(=O)c3ccc4[nH]cnc4c3)[C@H]1C2	–	refers to: ACTH	human, Phase II trial	oral, 20 mg once daily, HPA axis, mean	–	change from baseline	4.3 pmol/L
O=S(=O)(NCCNC/C=C/c1ccc(Br)cc1)c1cccc2cnccc12	–	–	mouse zygotes	20 µM, 120 h post-hCG	–	embryos reaching 8-cell	0%
CC(C)NCC(O)c1ccc(O)c(O)c1 (stereo not drawn)	–	–	ventricular cardiomyocytes, C57BL/6 mouse	dose not given, 0.58 s	–	sarcomere length	1.6 µm
C[C@H](Oc1ccc(Br)cc1-c1ccon1)C(=O)O	–	first response latency	human, tibialis anterior muscle	1200 mg, 30 Hz, single ascending dose	–	difference from placebo	2.56%
CCN(Cc1nc2c(N)nc3cc(-c4cc[nH]n4)ccc3c2[nH]1)C(C)=O	–	immunohistochemistry, refers to: cytotoxic T cells	patients with advanced solid tumours, non-injected tumour lesions	dose not given, monotherapy	relative to: baseline	mean fold change	1
CCCCCN1C[C@H](O)[C@@H](O)[C@H](O)[C@@H]1CO	–	–	mouse Hexb-/-, cerebral cortex	300 mg/kg/day	relative to: untreated Hexb-/- mice	number of increased sphingolipids	12
C=Cc1c(C)c2cc3nc(c(CC(=O)O)c4[nH]c(cc5nc(cc1[nH]2)C(C)=C5CC)c(C)c4C(=O)O)[C@@H](CCC(=O)O)[C@@H]3C	–	flow cytometry	4T1 tumour-bearing mice, spleen	dose not given	–	CD8+ T cells	2.94% and 3.47% and 2.95% and 2.68%
CC(=O)NCCc1ccc(C(=O)CCl)cc1	UCHL1	covalent, intact protein LC-MS	–	12.5 µM	–	labelling	29.5%
OC(CCN1CCCCC1)(c1ccccc1)C1CC2C=CC1C2 (stereo not drawn)	–	resting-state EEG	healthy elderly humans	oral, 4 mg, eyes closed, LS mean	–	EEG Beta3-power Fz-Cz	1.9 µV²
CN[C@@H]1COc2c(S(=O)(=O)NC(=O)Nc3c4c(cc5c3CCC5)CCC4)cnn2C1	–	refers to: IL-1β	human participants, whole blood ex vivo	900 mg single dose, 72 h, with: LPS/ATP	relative to: baseline	inhibition	27.4%
FC(F)(F)Oc1cccc(-c2cnc3ccc(-c4ccncc4)nn23)c1	–	bioluminescence imaging	mouse, MDA-MB-231-Luc xenograft	30 mg/kg, day 14	–	tumour bioluminescence	5.28e+10 photons/s and 9.96e+10 photons/s and 1.53e+10 photons/s and 1.14e+10 photons/s and 4e+10 photons/s
C=CCn1c(=O)c2cnc(Nc3ccc(N4CCN(C)CC4)cc3)nc2n1-c1ccc2c(n1)[C@@](O)(CC)CC2	–	–	SW1463 xenograft, NCG mice	oral, 60 mg/kg days 0-11 then 80 mg/kg days 11-21, day 21, once daily	–	tumour growth inhibition	56.9%
CC(C)[C@H](C(=O)Nc1ccc(C(=O)NO)cc1)c1ccccc1	–	volumetric MRI	human, right meningioma	dose not given, day 133	relative to: baseline	tumour volume change	104%
O=C(OC(C(F)(F)F)C(F)(F)F)N1CCN(Cc2cccc(Oc3ccccc3)c2)CC1	–	PET blocking study	rhesus monkey, brain STR	0.01 mg/kg, compound pretreatment, with: [18F]T-401 tracer	–	k4	0.131 min⁻¹
